Values quoted from earlier work that unrelated publications cite.
Compare with care: the assays were run in different laboratories. pEC50, pIC50: −log10 of the molar value. In brackets after ≈: the same amount, converted by molar mass.
lasR: Transcriptional activator protein LasR (lasR, Pseudomonas aeruginosa, UniProt P25084)
Sequence of UniProt P25084 (whole entry, looked up): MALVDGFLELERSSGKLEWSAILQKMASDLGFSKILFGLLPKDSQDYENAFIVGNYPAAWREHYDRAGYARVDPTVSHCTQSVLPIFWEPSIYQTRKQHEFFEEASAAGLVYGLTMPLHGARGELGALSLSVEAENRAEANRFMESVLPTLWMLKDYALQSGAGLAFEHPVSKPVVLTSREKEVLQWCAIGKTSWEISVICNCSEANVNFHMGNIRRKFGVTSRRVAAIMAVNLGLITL

Structure (SMILES) | tested on | assay | system | conditions | endpoint | result
CCCCCCCCCCCCn1nnc(CC(=O)O)n1 | lasR | rsaL-yfp reporter, inhibitor | PAO-MW1 | – | maximal inhibition | 80%
O=C(NCCCCCCN1CCCC2=CC3CC(CN4CCCCC34)C21)c1ccc(OC(F)(F)F)cc1 (centres unmarked) | HIV-1 NL4-3 Nanoluc | viral replication | MT-4 | – | pIC50 | < 4.70
CCC(=O)OC1C(=O)C2(C)C(O)CC3OCC3(OC(C)=O)C2C(OC(=O)c2cccc(OC(F)F)c2)C2(O)CC(OC(=O)C(O)C(C=C(C)C)NC(=O)OC(C)(C)C)C(C)=C1C2(C)C (centres unmarked) | HCT-116 | cytotoxicity | – | – | pIC50 | 8.84
COc1cc(NC(=O)CN2CN=C(c3ccccc3)C(c3ccccc3)=N2)cc(OC)c1 | amyloid beta | aggregation, inhibitor | – | 10 µM | inhibition | 31.2%
CC(=O)OC12COC1CC(O)C1(C)C(=O)C(OC(=O)C3CC3)C3=C(C)C(OC(=O)C(O)C(C=C(C)C)NC(=O)OC(C)(C)C)CC(O)(C(OC(=O)c4cccc(OC(F)(F)F)c4)C21)C3(C)C (centres unmarked) | LCC6-WT | cytotoxicity | – | – | pIC50 | 9.24
CS(=O)(=O)c1ccc(N2CCNCC2)cc1 | main protease (Mpro) | – | – | 50 µM | inhibition | 5.05%
CCCCCCCCCCCCCC/C=C/[C@H](CO)NC(=O)C(C)(C)C | acid ceramidase | fluorogenic | acid ceramidase-overexpressing cells | – | pIC50 | ~4.82
CC(C)[C@H](NC(=O)CNC(=O)CNC(=O)[C@H](Cc1ccc(O)cc1)NC(=O)[C@H](CS)NC(=O)[C@@H](NC(=O)[C@H](Cc1c[nH]c2ccccc12)NC(=O)[C@H](Cc1ccccc1)NC(=O)[C@H](CS)NC(=O)[C@H](Cc1c[nH]c2ccccc12)NC(=O)[C@@H](N)CCCNC(=N)N)C(C)C)C(=O)N[C@@H](CS)C(=O)N[C@@H](Cc1ccc(O)cc1)C(=O)N[C@@H](CCCNC(=N)N)C(=O)N[C@@H](CCCNC(=N)N)C(=O)N[C@@H](CS)C(=O)N[C@@H](CCCNC(=N)N)C(=O)O | Pseudomonas aeruginosa | – | – | – | MIC | 64 µM (≈ 142 µg/mL)
CC(=O)c1ccc2c(c1)c(=O)c(C(=O)NCCOCCO)cn2Cc1ccc(Br)cc1 | Trypanosoma brucei brucei | parasite growth | – | – | pIC50 | 5.15
CC[C@H](C)[C@H](NC(=O)[C@H](CCCCN)NC(=O)[C@H](CCCNC(=N)N)NC(=O)[C@H](CCCCN)NC(=O)[C@H](CC(C)C)NC(=O)[C@H](Cc1ccccc1)NC(=O)[C@H](CCC(=O)O)NC(=O)[C@H](CCCCN)NC(=O)[C@@H](NC(=O)[C@@H](NC(=O)[C@H](CCC(=O)O)NC(=O)[C@H](C)NC(=O)CNC(=O)[C@@H](N)CCCNC(=N)N)[C@@H](C)O)C(C)C)C(=O)N[C@@H](CCCNC(=N)N)C(=O)N[C@@H](CCC(=O)O)C(=O)N[C@@H](CCCNC(=N)N)C(=O)NCC(=O)N[C@H](C(=O)N[C@@H](CCCCN)C(=O)N[C@@H](C)C(=O)N[C@H](C(=O)N[C@H](C(=O)N[C@@H](C)C(=O)N[C@@H](Cc1c[nH]c2ccccc12)C(=O)O)[C@@H](C)CC)C(C)C)[C@@H](C)O | Escherichia coli | – | – | – | MIC | > 128 µM
Cc1[nH]c2ccccc2c1CC(=O)N[C@@H](Cc1ccccc1)C(=O)N(C)c1ccccc1 | HIV-1 capsid hexamer wild type | – | – | – | ΔTm | 7.4 °C
CC[C@H](C)[C@H](NC(=O)[C@H](CCCNC(=N)N)NC(=O)[C@@H](NC(=O)[C@@H]1CCCN1C(=O)[C@H](CCCNC(=N)N)NC(=O)[C@@H](NC(=O)[C@@H]1CCCN1C(=O)[C@H](CC(C)C)NC(=O)[C@H](CC(C)C)NC(=O)CNC(=O)[C@H](Cc1c[nH]cn1)NC(=O)[C@@H]1CCCN1C(=O)CNC(=O)[C@H](Cc1ccccc1)NC(=O)[C@H](CC(=O)O)NC(=O)[C@H](Cc1c[nH]c2ccccc12)NC(=O)[C@H](C)NC(=O)[C@@H](NC(=O)[C@H](C)N)[C@@H](C)O)[C@@H](C)CC)[C@@H](C)CC)C(=O)N[C@@H](CCCNC(=N)N)C(=O)N1CCC[C@H]1C(=O)N[C@@H](CC(C)C)C(=O)N[C@@H](CS)C(=O)NCC(=O)N[C@@H](CCCCN)C(=O)N[C@@H](CC(=O)O)C(=O)O | Staphylococcus aureus | – | – | – | MIC | > 128 µM
NC(=O)c1cccc(NC(=O)C(NC(=O)c2ccc(Oc3ccccc3)cc2)c2ccc(OCc3ccccc3)cc2)c1 (centres unmarked) | dengue virus 2 | viral replication | New Guinea C | – | pEC50 | 6.18
Cc1ccncc1CC(=O)Nc1cccc2c1CNCC2 | main protease (Mpro) | – | – | 50 µM | inhibition | 2.76%
CCCCCCC#Cc1cncc(-c2nnc(SCc3cc([N+](=O)[O-])cc([N+](=O)[O-])c3)n2C)c1 | Mycobacterium tuberculosis | MABA | Erdman wild type | – | pIC50 | 6.47
CC[C@H](C)[C@H](NC(=O)[C@H](CCCCN)NC(=O)[C@H](CCC(=O)O)NC(=O)[C@@H](NC(=O)[C@H](CCCNC(=N)N)NC(=O)[C@@H](NC(=O)CNC(=O)[C@H](CC(C)C)NC(=O)[C@H](CCCCN)NC(=O)[C@H](CCCNC(=N)N)NC(=O)[C@H](CCC(=O)O)NC(=O)[C@H](CC(C)C)NC(=O)CNC(=O)[C@@H](N)CCCNC(=N)N)C(C)C)[C@@H](C)CC)C(=O)NCC(=O)N[C@@H](CCCNC(=N)N)C(=O)N[C@@H](CCCNC(=N)N)C(=O)N[C@@H](CC(C)C)C(=O)NCC(=O)N[C@@H](CCCNC(=N)N)C(=O)N[C@H](C(=O)N[C@@H](CC(C)C)C(=O)NCC(=O)N[C@@H](CCC(=O)O)C(=O)N[C@@H](Cc1c[nH]c2ccccc12)C(=O)N[C@@H](CCC(=O)O)C(=O)N[C@H](C(=O)N[C@@H](CCC(=O)O)C(=O)O)C(C)C)[C@@H](C)CC | Staphylococcus aureus | – | – | – | MIC | 32 µM (≈ 106 µg/mL)
O=C(CCCOc1ccc(Cl)cc1)N[C@H]1CCOC1=O | lasR | reporter gene, antagonist, rsaL-gfp reporter | – | 1 mM | inhibition | 25%
CC[C@H](C)[C@H](NC(=O)[C@@H]1CCCN1C(=O)[C@H](CS)NC(=O)[C@H](Cc1ccc(O)cc1)NC(=O)[C@@H]1CCCN1C(=O)[C@H](CC(C)C)NC(=O)[C@H](CCCNC(=N)N)NC(=O)[C@H](CO)NC(=O)[C@H](Cc1ccc(O)cc1)NC(=O)[C@H](Cc1ccccc1)NC(=O)[C@H](CC(N)=O)NC(=O)[C@H](CCCNC(=N)N)NC(=O)[C@H](CS)NC(=O)[C@H](Cc1ccc(O)cc1)NC(=O)[C@H](CO)NC(=O)CNC(=O)[C@H](CO)NC(=O)[C@@H]1CCCN1C(=O)[C@H](CC(C)C)NC(=O)[C@H](Cc1ccc(O)cc1)NC(=O)[C@H](C)NC(=O)[C@@H]1CCCN1C(=O)[C@H](CCCNC(=N)N)NC(=O)CN)C(=O)N[C@@H](CCCNC(=N)N)C(=O)NCC(=O)NCC(=O)N[C@@H](Cc1c[nH]cn1)C(=O)N[C@@H](CS)C(=O)N[C@@H](CCCNC(=N)N)C(=O)O | Escherichia coli | – | – | – | MIC | 8 µM (≈ 27.6 µg/mL)
NC[C@]1(CC(=O)O)CC[C@@H]([18F])CC1 | α2δ-1 | radioligand binding | – | – | pIC50 | 7.62
CN1CCN(S(=O)(=O)c2ccc(-c3ccc4ncnc(Nc5ccccc5)c4c3)cc2)CC1 | Trypanosoma brucei | parasite growth | – | – | pEC50 | 5.82

Some of these lines once more:
Structure (SMILES) | tested on | assay | system | conditions | endpoint | result
Cc1ccncc1CC(=O)Nc1cccc2c1CNCC2 | main protease (Mpro) | – | – | 50 µM | inhibition | 2.76%
O=C(NCCCCCCN1CCCC2=CC3CC(CN4CCCCC34)C21)c1ccc(OC(F)(F)F)cc1 (centres unmarked) | HIV-1 NL4-3 Nanoluc | viral replication | MT-4 | – | pIC50 | < 4.70
